# Published values of several laboratories.
# Every numbered part comes from another study and shows a few of its results, in no order.

# Sample 1
# Target: RNA binding protein fox-1 homolog 2, RRM domain, GST-SBP tag (RBFOX2, Homo sapiens, UniProt O43251-10, residues 100-194)
# Method: RNA Bind-n-Seq
# Molecule type: RNA
# Medium: in vitro
# Concentration: 365 nM
# Notes: natural RNA segment, single round, ends assumed
# Reference: no-protein control
# Reading: higher = stronger binding
# Residues (chain): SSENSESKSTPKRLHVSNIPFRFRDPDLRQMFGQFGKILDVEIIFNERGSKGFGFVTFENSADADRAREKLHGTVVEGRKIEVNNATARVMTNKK
Oligonucleotide,RBNS enrichment (R)
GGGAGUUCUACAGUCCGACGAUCCUCCCUUGAGGGUUUCAGGGACCUUGAAAAGGGCAGGAGGACCUGCUGUCUUGCAGUUUUACCCCUGUCCACUCUCUGCCAUCCAGAAGCAAGCGUUGGUCAGUGUUGUGUGGAAUUCUCGGGUGCCAA,0.442
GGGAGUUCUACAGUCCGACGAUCUUAAGUUUAAAAAUCUUAAGUUUAUUAUGUUAAAUUGAAUUUUGUCAACCCUUCUUUUUAAAUUAAAAUAAUUGAAUAGAGUGCCUAGUUAAAUUUUCUCAAAGCAAGGUUGGAAUUCUCGGGUGCCAA,0.948
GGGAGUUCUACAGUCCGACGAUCCCACCAUUAUGGUUCCACUGGCUGUUUGUAUAUAGGGUUAUGUAUUAACUCUAGAAUCCCGUGUGCCCUUCUUGCUCACCGAACGUGAGAGUAUGGGCUGAGCAGGGGGAUGGAAUUCUCGGGUGCCAA,0.36
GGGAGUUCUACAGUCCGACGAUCUUUCUGCCCCAGCCAAAAUAAUCUUGUGCCAAAAGAUUAAAGGUUUGCCUCAAAAUGUCCCUGUUUGAAAGAUUAGCACAAAAGUCUUGAUAGCACAACACAAAUUCCAUUGGAAUUCUCGGGUGCCAA,0.893
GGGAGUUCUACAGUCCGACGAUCAUGAAGCAAAUUUUUUUUUCCACCAUGCUUUAUGUGAUUGUAUUUAAAUUGAUGUGUUAUUAUGUCAAAAGCCGGAUCUAUUAAAGAAACAAUUGGCCUUUCUGAGCUGAUGGAAUUCUCGGGUGCCAA,0.532
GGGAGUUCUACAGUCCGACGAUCAAAUUGGUUUGUCAUUUACCUCCAUGUGACUCCUUGCCCCAUAUAAAUGUCAGCAUAUGUAGCAAGUUUUCUAAGAAUGUAACUUAAUUUGAAGCUCCUGAAAUUUUGAGUGGAAUUCUCGGGUGCCAA,1.32
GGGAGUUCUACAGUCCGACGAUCCCCCUGCCCAAGCCCCAGCCUGACCCCAGUCCUUCCCUCUUGGACUCAGAGUUGGUGUGGCCUACCUGGCUAUACAUCUUCAUCCCUCCCCACCAUCCUGGGGAAGUGAUUGGAAUUCUCGGGUGCCAA,0.458
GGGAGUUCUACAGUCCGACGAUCAAGCUGUGCGUGUGUGUGUGUGUAUGUGUGUGUGUGUAUGUGUAUCUCACACUCAUGCAUUGUCCUCUUUUUAUUUAGAUUGGCAGUGUAGGGAGUUGUGGGUAGUGGGGUGGAAUUCUCGGGUGCCAA,1.67
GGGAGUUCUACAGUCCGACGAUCUGGCUAGGCUAGUCUCGAAUUCCUGACCUCAAGUGAUCCACCCGCCUUGGCCUCUCGAAGUGCUGGGAUUACAGGCGUGAGCCACCCGCCCGGCUAUCAGCACUGUUCUGUGGAAUUCUCGGGUGCCAA,0.376
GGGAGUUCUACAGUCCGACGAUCCGUCCUCGUGAGAUGAGAGCCUGAGCCAGGCAGCAGAGCGCUCGCUGCUGUGUAGACUGUAGGCUGCCUGGUGUGUCUGAUGAGAAGCGUCCGUCCUCGAGCCAGGCGGGUGGAAUUCUCGGGUGCCAA,1.55
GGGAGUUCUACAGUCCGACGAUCAACCGUCUGUAAUCAGUACAGCCACCCAAAGGGCUAUAGUUCUCAAUUAAAAUGCAAAUGGAUAUCUACUCUCGUGUUGUGUGCCUCAUCUCCUCUGACAGGGCUAUGGUUGGAAUUCUCGGGUGCCAA,0.602
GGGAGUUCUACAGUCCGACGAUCGGACACGUGUAGUGUGUUAAGAUGUGCUGAUGGAAACACUAUCUUCAAAACUAAAAAUCAGCCACAGUUGAAUGCUACAAAAGACAUUUAAAGAUUUUAUUUAAACUGUUUGGAAUUCUCGGGUGCCAA,0.509

# Sample 2
# Target: Histone acetyltransferase KAT6A, both winged helices, GST fusion (KAT6A, Homo sapiens, UniProt Q92794, residues 1-181)
# Method: protein binding microarray
# Molecule type: double-stranded DNA, one strand shown
# Medium: in vitro
# Concentration: not given
# Notes: 8-mer, flanks averaged, mean of 2 arrays, mostly near background
# Reference: not given
# Reading: higher = stronger binding
# Target sequence (chain): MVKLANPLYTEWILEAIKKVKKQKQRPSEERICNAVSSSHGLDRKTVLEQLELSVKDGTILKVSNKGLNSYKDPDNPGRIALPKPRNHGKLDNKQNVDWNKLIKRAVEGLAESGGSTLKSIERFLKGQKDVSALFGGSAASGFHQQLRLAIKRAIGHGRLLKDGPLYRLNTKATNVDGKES
Oligonucleotide,E-score
GTCTCGTA,-0.192
GACACCAA,-0.0143
CGCTTCAC,0.214
ATGGGACA,-0.00617
CGCCCCGA,0.178
ATTCATGC,-0.0515
ACCTGGTC,-0.102
CACGGACC,0.266
AGGTTTCC,-0.0129
AGTGTGGC,-0.108
CGGGCCAG,0.0425
CCCCCGAC,0.0796
AGAGTAAA,-0.0177
ACGCCCGG,0.244
GCCTGTGA,-0.0618
AGTTAACA,-0.0104
AAGCACAC,-0.114
GCGCCTGA,0.165
CAGTATTA,-0.142
ACTTTGAC,-0.0123
ACTAGCAT,-0.127
GTGACGAA,0.0345
CAATACAG,-0.0235
ATTTCAGG,-0.0416
AGAGGGTG,-0.193

# Sample 3
# Target: Sal-like protein 4, full length isoform A (SALL4, Homo sapiens, UniProt Q9UJQ4, residues 1-1053)
# Chain of UniProt Q9UJQ4 (whole entry, looked up): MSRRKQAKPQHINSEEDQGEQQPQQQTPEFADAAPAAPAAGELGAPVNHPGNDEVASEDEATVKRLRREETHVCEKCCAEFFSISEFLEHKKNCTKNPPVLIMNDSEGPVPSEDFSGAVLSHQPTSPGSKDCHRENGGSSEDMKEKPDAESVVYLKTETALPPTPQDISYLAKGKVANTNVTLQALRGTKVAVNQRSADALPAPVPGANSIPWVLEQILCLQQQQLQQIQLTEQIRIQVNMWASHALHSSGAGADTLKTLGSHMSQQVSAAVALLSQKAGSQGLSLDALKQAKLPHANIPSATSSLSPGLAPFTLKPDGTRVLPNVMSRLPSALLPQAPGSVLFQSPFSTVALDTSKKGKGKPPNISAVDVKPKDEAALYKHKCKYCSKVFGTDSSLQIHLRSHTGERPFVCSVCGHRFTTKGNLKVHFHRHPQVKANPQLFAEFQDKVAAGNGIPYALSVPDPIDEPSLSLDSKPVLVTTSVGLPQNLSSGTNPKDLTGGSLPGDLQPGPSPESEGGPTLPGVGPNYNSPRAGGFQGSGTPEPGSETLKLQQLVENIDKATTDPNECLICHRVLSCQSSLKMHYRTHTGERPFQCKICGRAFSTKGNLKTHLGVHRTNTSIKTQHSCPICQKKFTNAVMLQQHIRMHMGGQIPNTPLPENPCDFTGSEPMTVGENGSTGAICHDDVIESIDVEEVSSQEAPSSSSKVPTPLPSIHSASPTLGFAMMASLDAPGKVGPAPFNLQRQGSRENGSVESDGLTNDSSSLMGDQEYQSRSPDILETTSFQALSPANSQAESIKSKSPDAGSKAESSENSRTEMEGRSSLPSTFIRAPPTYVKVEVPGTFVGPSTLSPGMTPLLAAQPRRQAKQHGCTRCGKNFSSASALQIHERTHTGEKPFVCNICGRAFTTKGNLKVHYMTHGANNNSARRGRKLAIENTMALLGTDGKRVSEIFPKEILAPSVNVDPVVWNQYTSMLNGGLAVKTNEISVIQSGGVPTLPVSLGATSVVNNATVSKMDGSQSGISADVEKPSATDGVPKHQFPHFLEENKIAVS
# Method: universal PBM
# Molecule type: double-stranded DNA, one strand shown
# Medium: in vitro
# Concentration: 600 nM
# Notes: 8-mer, flanks averaged, mean of replicates
# Reading: higher = stronger binding
Oligonucleotide,E-score
CGCGCTAG,-0.174
GCTCCAAA,-0.113
ATAAATGG,0.269
AGGATCAT,0.0952
AACGGGCA,-0.0443
GTACGTCA,0.0489
TCCGGGCA,-0.296
GCGCTAGC,-0.29
CGGTCCTC,-0.301
AACCCGGT,-0.359
CCATCTGC,-0.0918
AGGGCAGA,-0.18
AACAATTA,0.379
CGCTGTTC,-0.189
CGTTTCCC,-0.246
AAAGTGAC,0.0241
CGTGACAG,-0.111
AAAGTAGT,0.102
CACGCACG,-0.224
AAATTCGC,0.144
ATGGGTGC,-0.0262
ACCGCATC,-0.183
AATTCATA,0.388
GCGTATAC,0.0799
GTATGGTA,0.116

# Sample 4
# Target: Interferon regulatory factor 3, full length, phosphomimetic (IRF3, Homo sapiens, UniProt Q14653, residues 1-427, S386D/S396D/S398D/S402D/T404D/S405D)
# Method: protein-binding microarray
# Molecule type: double-stranded DNA, one strand shown
# Medium: in vitro
# Concentration: 2540 nM top
# Notes: 60-bp whole probe
# Together with: salmon DNA 0.4 mg/ml
# Reference: random background probes
# Reading: higher = stronger binding
# All sequences stand within: GCCTAGCAC … GTCTTGATTCGCTTGACGCTGCTG
# Target sequence (chain): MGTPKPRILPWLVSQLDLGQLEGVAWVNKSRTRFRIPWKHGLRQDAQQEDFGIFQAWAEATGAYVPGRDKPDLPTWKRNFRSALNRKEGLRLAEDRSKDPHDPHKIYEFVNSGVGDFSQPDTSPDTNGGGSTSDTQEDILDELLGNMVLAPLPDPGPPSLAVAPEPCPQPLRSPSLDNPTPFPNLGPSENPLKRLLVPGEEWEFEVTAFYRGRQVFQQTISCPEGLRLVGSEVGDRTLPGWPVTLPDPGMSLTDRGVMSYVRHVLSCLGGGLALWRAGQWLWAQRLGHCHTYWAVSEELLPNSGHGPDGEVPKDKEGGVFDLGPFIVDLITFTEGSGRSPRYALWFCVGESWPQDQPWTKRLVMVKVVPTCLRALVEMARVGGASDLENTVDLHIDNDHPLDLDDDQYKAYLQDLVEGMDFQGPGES
Oligonucleotide,fitted relative affinity [z-score]
TTAGATCTCAGACTAGATTAGTGCTAG,0.126
TTAGATCTCATACTGGATTAGTGCTAG,0.31
GACTATCTCAGTATCGAGACGTGCTAG,0.938
TTAGAACTGGGGTATCGATTGGTGCTA,-0.693
GACGGTATCAGGACTGGGGACGTGCTA,1.87
GACGGTATCAGTATCGGGACGTGCTAG,3.86
TCACACTTCCTTCTGCCACTGTGCTAG,1.03
TCACGGCTCTAAACTCATACTGTGCTA,-0.579
TGTGATCTCATATGAAAACAGTGCTAG,0.458
TCATTAATGAAAATTCTAACTGTGCTA,-0.0544
GTAGGTATCCTTCTCCTTTAGTGCTAG,7.29
GACGGTTTCGACAGTGGGGACGTGCTA,2.35
GACGGTATCCGGACTGGGGACGTGCTA,2.37
GATGGTTCCGGTTTCGGGACGTGCTAG,6.45
CCAGCTCTTTCGTTACTTCCTGTGCTA,1.29
TTAGAACTGAGTATCGATCAGTGCTAG,-0.134
TTATTTATAAATTATCTTTAAGTGCTA,0.445
CAAATTGTCTCTGTCCCTGTGTGCTAG,1.53
TTCTTAATGCTTCTGGGCCAGTGCTAG,0.227
GACGATCGCAGTCTCGAGACGTGCTAG,0.108
TTAGATTCCCGTTTCGATTAGTGCTAG,3.96
GCTTCTACACAGAGCATGGGGTGCTAG,-0.0451
TTAGATTTCAGTATCGAGTAGTGCTAG,1.82
TCAGCTTTTTAGATCGTACTGTGCTAG,0.566
TTAGGTCTCCTTTTCCGTTAGTGCTAG,4.57
